Results of several laboratories.
Numbered parts are unrelated; each lists some results of a single study. Changes are numbered by the printed parent chain.

Block 1
Target: Histone acetyltransferase KAT6A, winged helix 1, GST fusion (KAT6A, Homo sapiens, UniProt Q92794, residues 1-85)
Method: protein binding microarray
Molecule type: double-stranded DNA, one strand shown
Matrix: in vitro
Tested at: not given
Notes: 8-mer, flanks averaged, mean of 2 arrays, mostly near background
Reference: not given
Reading: higher = stronger binding
Endpoint: E-score
Construct (chain): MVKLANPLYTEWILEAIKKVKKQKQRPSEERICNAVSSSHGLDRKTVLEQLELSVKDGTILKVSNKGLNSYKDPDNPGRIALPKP
AATGCGAC: 0.271
GCCGGTAC: 0.335
AAATGCAT: -0.172
AGGACTTA: -0.274
AGCAGCCC: -0.0292
ATAGAGTC: 0.0478
CCACCTCA: -0.246
CCACTCTC: -0.125
AACTGGTC: -0.0231
AATTTCCC: -0.136
CCGCAGTC: 0.268
CTGGACCA: -0.222
AACTACCA: -0.226
AAGCGCTC: 0.373
CGACCGAA: 0.0587
AACATGAA: -0.0605
ATGCATTC: -0.213
TAGCTAGA: -0.171
GCCTTATA: 0.0257
CCAACGAA: -0.167

Block 2
Target: ABI1, truncated, D143A, DHFR fusion (Arabidopsis thaliana)
Method: DHFR PCA, deep sequencing
Matrix: yeast
Notes: methotrexate growth selection, single substitutions
With: (+)-ABA 710 µM
Reference: wild-type fitted maximum
Reading: higher = stronger binding
Endpoint: relative binding score
Parent: PYL1, truncated, DHFR fusion (Arabidopsis thaliana); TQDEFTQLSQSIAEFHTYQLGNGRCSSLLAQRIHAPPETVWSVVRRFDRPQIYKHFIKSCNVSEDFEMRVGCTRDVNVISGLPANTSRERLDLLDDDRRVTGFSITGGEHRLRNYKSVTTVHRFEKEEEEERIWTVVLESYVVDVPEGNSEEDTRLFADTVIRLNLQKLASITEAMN
L91R: 11.6%
G148C: 89.7%
D95M: 98.5%
S9Q: 105%
F56Q: 38.2%
P83Y: 39.7%
V70D: 83.7%
L156H: 95.3%
S117I: 3.56%
H34V: 98.7%
S11Y: 99.4%
D95V: 83.1%
R45N: 74.8%

Block 3
Target: RING finger protein unkempt homolog, zinc fingers 1-6, SBP tag (UNK, Homo sapiens, UniProt Q9C0B0, residues 30-357)
Sequence of UniProt Q9C0B0 (30-357, looked up): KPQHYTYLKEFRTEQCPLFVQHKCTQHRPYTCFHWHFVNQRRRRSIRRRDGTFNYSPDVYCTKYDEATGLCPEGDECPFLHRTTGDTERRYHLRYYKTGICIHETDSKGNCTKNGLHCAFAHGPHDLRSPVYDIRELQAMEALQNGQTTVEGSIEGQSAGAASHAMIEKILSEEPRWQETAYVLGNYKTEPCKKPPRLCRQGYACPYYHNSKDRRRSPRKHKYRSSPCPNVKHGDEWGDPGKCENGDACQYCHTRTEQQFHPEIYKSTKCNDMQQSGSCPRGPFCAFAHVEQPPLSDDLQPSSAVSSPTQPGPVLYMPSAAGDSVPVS
Method: RNA Bind-n-Seq
Molecule type: RNA
Matrix: in vitro
Tested at: 100 nM
Notes: RNA with constant flanks, vertebrate orthologous sites, ends assumed
Reference: input RNA pool
Reading: higher = stronger binding
Endpoint: bound/input enrichment
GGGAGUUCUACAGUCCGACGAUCCUCCUCUUAAUCCCAUCUCAUCUGUUUCAUAGUGCUGAAAUUCCAUCUUCAGCCGUAUUUUUAGUGAACUUAUUCUAAUUCUAGAGAAACUUCCAGUGGAUACUGUGAGCUAUAUGGGGACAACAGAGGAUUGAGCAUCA: 1.53 ratio
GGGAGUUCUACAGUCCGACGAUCCACACUAUAUUGUGGCAUUUAGUCAACAUGGAAGUAGACCAGCUCUGCAGAUUUGAAAUUUAGAUUUUUUUUAAUUAUGUACUGGGGACAGGUUUUUGUCGCUUUACAUUGCUUCCUAGUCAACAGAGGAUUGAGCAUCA: 3.86 ratio
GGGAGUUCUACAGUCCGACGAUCUUGGGAUCAGCUCCCCAAAUAGGAAUAGUAGUAAAAAAAAUAAGCAAAAUGAUAUUUGUAUAGAAAAAACAGAAGUUAAAUCAUGUAAAGUAAAUGUUGCCAAUAUUGCAGGCUCCAAAGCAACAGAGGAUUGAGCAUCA: 2.33 ratio
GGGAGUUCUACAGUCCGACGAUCUGUAUGUGUGGGUUUAGGGGAGGGGGGAGGGGGCAAGACAGGUGGAAUCUCUAAGGUGUAUGGGUAGUAGGAAGCACAGUUAGUGCUAAGUGGGCCUUUAUGUUAAACACCUCUGGGGGUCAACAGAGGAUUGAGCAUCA: 0.309 ratio
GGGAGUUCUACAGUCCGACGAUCUGGUUACUGUGAUAUUGAAAUCAUGCACAGUACUCAUUUUUUUCCCUCCUCAGAUGAUUCCAUUAAUUGCCUAGAAAUAUCUUUUUCUUACCUGUUAUUUAUCAAUUUUUCCCAGUAUUUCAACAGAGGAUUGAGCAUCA: 0.741 ratio
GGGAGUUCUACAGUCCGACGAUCAAAUGCAAUAGAAUUACACUAAUACUGAAGUUUCCAGUUGAAAGGAUAUCCAAGUGUGUGUUGGUAGUUACUAAAAAGAAUUAUAGCUGUUAUUGCCUUGUAUUUAUAUCCCUUGUUUCACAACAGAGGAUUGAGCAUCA: 1.41 ratio
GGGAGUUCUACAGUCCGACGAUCCCCUCUGAACCCCAUAUCUUCUGUUUCAUAGUGCAGAAGUGUUCUUUUCAAUUGUAUUAUUAGUGGACUUGUUUAAUUUUAGAGAAACUUUCAGUACAGAUACUGUGAGCUUACAUGGAACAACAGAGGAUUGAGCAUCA: 1.71 ratio
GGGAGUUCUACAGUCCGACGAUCCUACAGGAGAAGAGCUCACAACUCAGAAGGAACUAUCAAGAGUUUCUAAUGGCUGAAAGCUAGGAAAAAUUAGGACAAUUUUACAAAUGAGCCAUUAAAACAAAACAAAAAAGAUAUGGACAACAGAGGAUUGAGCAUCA: 1.22 ratio
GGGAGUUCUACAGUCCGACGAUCAAAGCAAUGGCUUUUGCUCUAUCACAAAGCUAAGAAACAGACCCACAAAUAAAUAACAAAUAACUAUUUUUGAAAUUCAAAUGUUUAAAUUUUGUAAAUCAGCAGUUUGGGAUGUCUCGUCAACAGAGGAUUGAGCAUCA: 0.479 ratio
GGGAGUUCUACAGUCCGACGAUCGUUGGGUCAUGACCCUUACAGGUUAGGUCAUGAUGCUUAUAGGUUAGGACAAGACCCUUAUAGAUUAGGCCAUGAUCCCUACAGACUAACUCCUGAUCCCUAUAGGAUGUCACCUAGACCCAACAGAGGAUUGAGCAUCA: 0.641 ratio
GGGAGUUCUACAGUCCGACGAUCGGGUGGCCGGUGGGGGAACCCCAUGCCCUGGCCUUGCCUCCCCUCCCUGCCACCCGCUCCUAGUUAUUAUUUUUUUUUUUAACCACCAUGUGAUUAAGGUCGGCGCUGCCUCCCCCGACCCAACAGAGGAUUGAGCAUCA: 6.15 ratio

Block 4
Target: Sal-like protein 4, full length isoform A (SALL4, Homo sapiens, UniProt Q9UJQ4, residues 1-1053)
Sequence of UniProt Q9UJQ4 (whole entry, looked up): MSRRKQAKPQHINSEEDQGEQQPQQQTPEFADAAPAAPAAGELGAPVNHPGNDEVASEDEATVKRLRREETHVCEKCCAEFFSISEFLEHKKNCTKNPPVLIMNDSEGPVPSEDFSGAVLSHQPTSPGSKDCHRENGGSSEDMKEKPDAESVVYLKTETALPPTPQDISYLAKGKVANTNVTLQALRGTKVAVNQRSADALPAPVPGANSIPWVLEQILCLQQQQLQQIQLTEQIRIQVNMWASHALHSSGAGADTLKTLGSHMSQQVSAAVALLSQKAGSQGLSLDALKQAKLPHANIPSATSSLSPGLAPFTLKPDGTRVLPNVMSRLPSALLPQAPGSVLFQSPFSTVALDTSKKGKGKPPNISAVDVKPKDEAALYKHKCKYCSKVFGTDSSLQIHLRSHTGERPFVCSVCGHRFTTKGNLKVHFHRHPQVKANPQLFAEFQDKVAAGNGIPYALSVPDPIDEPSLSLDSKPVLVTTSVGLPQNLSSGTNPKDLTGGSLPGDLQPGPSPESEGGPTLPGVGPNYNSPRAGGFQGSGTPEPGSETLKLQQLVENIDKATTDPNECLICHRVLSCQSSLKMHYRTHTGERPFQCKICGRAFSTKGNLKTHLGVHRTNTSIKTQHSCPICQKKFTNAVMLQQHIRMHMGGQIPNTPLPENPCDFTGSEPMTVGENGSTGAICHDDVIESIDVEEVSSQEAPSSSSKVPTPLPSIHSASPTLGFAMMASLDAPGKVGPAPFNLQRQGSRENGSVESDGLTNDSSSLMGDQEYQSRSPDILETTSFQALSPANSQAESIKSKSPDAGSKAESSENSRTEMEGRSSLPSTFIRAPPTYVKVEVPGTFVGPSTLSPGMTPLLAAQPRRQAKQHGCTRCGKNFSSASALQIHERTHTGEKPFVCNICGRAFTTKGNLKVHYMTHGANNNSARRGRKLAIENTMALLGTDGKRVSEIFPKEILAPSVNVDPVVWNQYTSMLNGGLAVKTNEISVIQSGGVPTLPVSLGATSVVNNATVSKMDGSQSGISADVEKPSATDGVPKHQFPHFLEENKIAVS
Method: universal PBM
Molecule type: double-stranded DNA, one strand shown
Matrix: in vitro
Tested at: 600 nM
Notes: 8-mer, flanks averaged, mean of replicates
Reading: higher = stronger binding
Endpoint: E-score
CGTGCTAA: 0.0792
CAGATCTG: -0.246
AAAGCACG: -0.0439
CTTGGCCA: -0.194
GCTGACCC: -0.223
ACGGCAAT: 0.143
CATGGGTC: -0.144
CGAAAGCG: -0.27
TGCAATAA: 0.324
AAGCGGAT: -0.103
GAACGAGA: 0.0235
TCGCACGA: -0.0324
CATTCGTC: -0.0307
ATCCGAGA: 0.0463
CTGTTCGC: -0.0538
GAAGGACC: -0.219
GAAAATTA: 0.366
CATAATCA: 0.369
AATACAGT: 0.233
CTACATTA: 0.159
ACAACCCT: -0.149
CGTACGGA: -0.0887
TAACAGGA: 0.149
CTTAATGC: 0.107
AGACCCCC: -0.315

Block 5
Target: Fragile X messenger ribonucleoprotein 1, C-terminal low-complexity region (Fmr1, Mus musculus, UniProt P35922)
Method: RNA Bind-n-Seq
Molecule type: RNA
Matrix: in vitro
Tested at: 200 nM
Notes: whole 134-nt RNA, ends assumed
With: 150 mM LiCl
Reference: input library
Reading: higher = stronger binding
Endpoint: log2 enrichment
Each molecule: 7-deaza-guanosine replaces G
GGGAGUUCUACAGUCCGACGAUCGUCCUGUGCUACACAUCGUAUGUACCGAAUCGGGGCCCCGGGCCCCGGGGCCCCGGGGAAAGUAUUAUGUUACGCCGUUCGGAUCUGCACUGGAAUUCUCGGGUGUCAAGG: -0.543
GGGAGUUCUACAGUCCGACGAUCUCCUGUGCUACACAUCGUAUGUACCGAAUCAAAUUUUUUUAAACCCAAACCCCCCCAAAAAAGUAUUAUGUUACGCCGUUCGGAUCUGCAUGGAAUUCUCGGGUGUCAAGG: 1.61
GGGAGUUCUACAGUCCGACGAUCAGUCCUGUGCUACACAUCGUAUGUACCGAAUCGGGGUGGGGUUUUUGGGGUUUGGGGAAAGUAUUAUGUUACGCCGUUCGGAUCUGCACUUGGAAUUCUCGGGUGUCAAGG: -1.03
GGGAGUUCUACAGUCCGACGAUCGCAGGAAGUAAAAACAAAUGGAAAUGCUUCGGAUAGUGGCAGGGGUGGGGGUUGCUAACGAAAGGGUGGGAUGGGAGUGGGUAAAGAGUUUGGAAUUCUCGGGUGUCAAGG: 1.22
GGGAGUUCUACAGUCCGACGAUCCACAGACAACACGCACCCACACAGACACAGAGGGAAGGGGUUGGGAUGGGGACAGGGUGCACAGCAGGGCGGAGUAGGACCCCAGCCCCUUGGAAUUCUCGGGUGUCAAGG: 0.0851
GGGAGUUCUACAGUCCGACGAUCCACAGACAACACGCACCCACACAGACACAGAGGGAAGGGGUUGGGAUGGGGACAGGGUGCACAGCAGGGCGGGGUAGGACCCCAGAAACUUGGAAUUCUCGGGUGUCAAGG: -0.843
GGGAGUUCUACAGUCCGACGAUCUGGCGCCGUUCGACACCAGGCGGAUCCGCUCUGCAGCACGAACCCAUCUCCAGCCGCAGCCGCAGCCGCCGCCCGGGCCGAGGAGCAGCCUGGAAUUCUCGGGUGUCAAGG: 0.251
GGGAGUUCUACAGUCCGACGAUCUCAAGUCCUGUGCUACACAUCGUAUGUACCGAAUCGGGGUUGGUUGGGUUGGGGAAAGUAUUAUGUUACGCCGUUCGGAUCUGCACUUCCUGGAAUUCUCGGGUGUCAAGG: 0.028
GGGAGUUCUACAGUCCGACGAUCAAGUCCUGUGCUACACAUCGUAUGUACCGAAUCGGUGGAAAAAAAGGAAAAAAAGGAAAGUAUUAUGUUACGCCGUUCGGAUCUGCACUUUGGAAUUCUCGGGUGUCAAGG: -1.83
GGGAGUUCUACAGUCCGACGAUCUUCUGGUCUGCUCACCAGAGGUUCUUCAAAUACUUAUGCAUAGCAUCCAAAGUUAAAAGGGUUGUGCAACUAGCUCGAGAGGAAAUCAAGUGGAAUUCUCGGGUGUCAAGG: -1.08
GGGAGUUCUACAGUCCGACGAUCCUCAAGUCCUGUGCUACACAUCGUAUGUACCGAAUCGGUUUGGUUUGGUUUGGGAAAGUAUUAUGUUACGCCGUUCGGAUCUGCACUUCCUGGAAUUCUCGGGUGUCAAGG: -0.529

For quick reference, copied from above (block 1):
AACTACCA: -0.226
AAGCGCTC: 0.373
CGACCGAA: 0.0587
AACATGAA: -0.0605
